Results gathered from unrelated publications.
Every numbered part comes from another study and shows a few of its results, in no order. Changes are numbered by the printed parent chain.

Set 1 — method: RNA Bind-n-Seq; form: RNA; matrix: in vitro; tested at: 365 nM; reference: no-protein control; reading: higher = stronger binding
Target: RNA binding protein fox-1 homolog 2, RRM domain, GST-SBP tag (RBFOX2, Homo sapiens, UniProt O43251-10, residues 100-194)
Setting: natural RNA segment, single round, ends assumed
Target sequence (chain): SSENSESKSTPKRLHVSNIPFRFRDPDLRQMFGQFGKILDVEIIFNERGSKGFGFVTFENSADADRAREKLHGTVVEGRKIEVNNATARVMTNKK
Strand	RBNS enrichment (R)
GGGAGUUCUACAGUCCGACGAUCGAAUAAUGGAGAUUUUGUGUCUGCAAAAUUCCUGAGAUCAUUGAAAAAGUAACAAGCUGUUCCUUGUUUCUGAUACAUAAAAUUAUUUUAAGCAUUUUAUCAAUCAUUAAUGGAAUUCUCGGGUGCCAA	0.931
GGGAGUUCUACAGUCCGACGAUCUUUUUUUAAACAAAACAAACUAAGCAAUAGUUUGGGCAGUUCUAGUUGUUUUUAGUGAGCAUGUUGUAGUCUCGACUGCAAAGAGAGAGAAUAAACUGCCCACUCAGAAGUGGAAUUCUCGGGUGCCAA	1.99
GGGAGUUCUACAGUCCGACGAUCACAUGCGCCACCAAGCAGAUCCCAGCAAGGGUGCCCCAGUCACAUCCUUGGCCAUGCAGUUAGCACCUUCCUGUCAUGGGGAAGAUAUAGUGAAUUGCCCUGAGCUGCCUUGGAAUUCUCGGGUGCCAA	0.261
GGGAGUUCUACAGUCCGACGAUCACUUGAGGUAUGUACCAUUUGUAUACCUGAAUUUAUUUUAAAGAUAAACUGAAAUGCACAUAGCCAAGUCUUGACAUUACAAGAUUGUGUAUUUCUUAAAAUACAACUUUUGGAAUUCUCGGGUGCCAA	0.41

Set 2 — method: protein binding microarray; form: double-stranded DNA, one strand shown; matrix: in vitro; tested at: not given; reference: not given; reading: higher = stronger binding
Target: Histone acetyltransferase KAT6A, both winged helices, GST fusion (KAT6A, Homo sapiens, UniProt Q92794, residues 1-181)
Setting: 8-mer, flanks averaged, mean of 2 arrays, mostly near background
Construct (chain): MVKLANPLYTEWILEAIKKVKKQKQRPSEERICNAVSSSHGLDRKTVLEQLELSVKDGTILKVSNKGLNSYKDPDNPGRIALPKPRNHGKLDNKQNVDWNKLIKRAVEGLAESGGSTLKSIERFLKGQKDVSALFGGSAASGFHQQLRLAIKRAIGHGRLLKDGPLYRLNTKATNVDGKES
Strand	E-score
CTGAACCC	0.0182
CGGTAATC	0.222
ACATCCCC	0.0315
CTGTAACA	-0.141
GACAATAC	-0.0432
AGGTATGG	-0.107

Mixed results
ABI1: ABI1, truncated, D143A, DHFR fusion (Arabidopsis thaliana)
P1: PYL1, truncated, DHFR fusion (Arabidopsis thaliana); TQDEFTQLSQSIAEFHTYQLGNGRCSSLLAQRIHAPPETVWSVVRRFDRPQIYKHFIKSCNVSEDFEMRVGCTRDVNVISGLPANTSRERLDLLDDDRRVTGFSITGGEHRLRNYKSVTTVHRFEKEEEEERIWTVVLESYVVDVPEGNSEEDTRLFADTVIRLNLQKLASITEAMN; partner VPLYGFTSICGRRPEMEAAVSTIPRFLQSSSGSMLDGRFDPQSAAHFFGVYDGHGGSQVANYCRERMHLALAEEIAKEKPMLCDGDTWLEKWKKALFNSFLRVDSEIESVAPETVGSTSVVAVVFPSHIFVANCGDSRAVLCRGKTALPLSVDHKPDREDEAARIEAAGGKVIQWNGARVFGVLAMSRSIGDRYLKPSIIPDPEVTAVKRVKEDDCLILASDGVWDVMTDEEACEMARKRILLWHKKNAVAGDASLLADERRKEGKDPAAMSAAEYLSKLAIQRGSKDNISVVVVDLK
Molecule	target	test	test system	setting	how to read	measurement	value
P1 T39A	ABI1	DHFR PCA, deep sequencing	yeast	methotrexate growth selection, single substitutions, together with: (+)-ABA 0.0091 µM	reference: wild-type fitted maximum, higher = stronger binding	relative binding score	15.3%
PhoQ, residues 284 288 289 292 302 303 SACGEM	PhoP, residues 12 14 15 18 19 VQGLL (Escherichia coli, UniProt P23836)	Sort-seq, measured: YFP reporter	E. coli	PhoQ-PhoP variant library, together with: 10 µM Mg2+	reference: high Mg2+ state, higher = stronger signaling	fold induction	3.35
P1 T119F	ABI1	DHFR PCA, deep sequencing	yeast	methotrexate growth selection, single substitutions, together with: (+)-ABA 0.39 µM	reference: wild-type fitted maximum, higher = stronger binding	relative binding score	-9.53%
P1 V44L	ABI1	DHFR PCA, deep sequencing	yeast	methotrexate growth selection, single substitutions, together with: (+)-ABA 0.0091 µM	reference: wild-type fitted maximum, higher = stronger binding	relative binding score	5.96%
P1 P36T	ABI1	DHFR PCA, deep sequencing	yeast	methotrexate growth selection, single substitutions, together with: (+)-ABA 1.4 µM	reference: wild-type fitted maximum, higher = stronger binding	relative binding score	51%

For quick reference, copied from above (mixed results):
Molecule	target	test	test system	setting	how to read	measurement	value
PhoQ, residues 284 288 289 292 302 303 SACGEM	PhoP, residues 12 14 15 18 19 VQGLL (Escherichia coli, UniProt P23836)	Sort-seq, measured: YFP reporter	E. coli	PhoQ-PhoP variant library, together with: 10 µM Mg2+	reference: high Mg2+ state, higher = stronger signaling	fold induction	3.35
